# Experimental data collected from several papers.
# A part holds a random share of what one study measured.

# Study 1
# Target: Fragile X messenger ribonucleoprotein 1, C-terminal low-complexity region (Fmr1, Mus musculus, UniProt P35922)
# Technique: RNA Bind-n-Seq
# Form: RNA
# Matrix: in vitro
# Concentration: 200 nM
# Notes: whole 134-nt RNA, ends assumed
# Together with: 150 mM KCl
# Reference: input library
# Reading: higher = stronger binding
# All sequences stand within: GGGAGUUCUACAGUCCGACGAUC … UGGAAUUCUCGGGUGUCAAGG
Strand,log2 enrichment
AGUCCUGUGCUACACAUCGUAUGUACCGAAUCGGUUUUUGGUUUUUUUGGAAAAAGGAAAGUAUUAUGUUACGCCGUUCGGAUCUGCACU,-1.13
GCAGGAAGUAAAAACAAAUGGAAAUGCUUCGGAUAGUGGCAGGGGUGGGGGUUGCUAAGGAAAGGGUGGGAUGGGAGUGGGUAAAGGGUU,0.147
UAACUUUAGAGGAGGAUCUGAUGGAUAUGGCAGUGGACGUGGAUUUGGGGAUGGCUAUAAUGGGUAUGGAGGAGGAGCUGGAGGUGGCAA,0.777
ACCAUGCAGGUGGGCAUCUUUGGGAAGUGGGGCAAGGGGGGGGUAGGGAGGGGGGUAACACUUUGGGAACAGGUGGUCCCAGGUCGUUUC,0.789
UCAAGUCCUGUGCUACACAUCGUAUGUACCGAAUCGGGAAGGGGAAGGGGAAGGGAAAGUAUUAUGUUACGCCGUUCGGAUCUGCACUUC,0.796
UCCUCAAGUCCUGUGCUACACAUCGUAUGUACCGAAUCGGAGGAGGGAGGGAAAGUAUUAUGUUACGCCGUUCGGAUCUGCACUUCCAGC,-0.249
GCAGGAAGUAAAAACAAAUGGAAAUGCUUCAGAUAGUGGCAGGGGUGGGGGUUGCUAAGGAAAGGGUGGGAUGGGAGUGGGUAAAGAGUU,0.111
GCAGGAAGUAAAAACAAAUGGAAAUGCUUCGGAUAGUGGCAGGGGUGGGGGUUGCUAAGGAAAGGCUGGGAUGGGAGUGGGUAAAGAGUU,0.325
GCAGGAAGUAAAAACAAAUGGAAAUGCUUCGGAUAGUGGCAGGGGUGGGGGAAACUAAGGAAAGGGUGGGAUGGGAGUGGGUAAAGAGUU,0.065
UGGCCCUGGUGGCAUGCGGGGAGGAAGAGGUGGCCUCAUGGAUCGUGGUGGUCCCGAUGGAAUGUUCAGAGGUGGCCGUGGUGGAGACAG,-0.167
UCCUCAAGUCCUGUGCUACACAUCGUAUGUACCGAAUCGGAAGGAAGGAAGGAAAGUAUUAUGUUACGCCGUUCGGAUCUGCACUUCCAG,0.0611
UCAAGUCCUGUGCUACACAUCGUAUGUACCGAAUCGGAAAAAAAGGUGGUUUGGAAAGUAUUAUGUUACGCCGUUCGGAUCUGCACUUCC,-0.835
AAGUCCUGUGCUACACAUCGUAUGUACCGAAUCGUGUGUGUGUGUGUGUGUGUGUGAAAGUAUUAUGUUACGCCGUUCGGAUCUGCACUU,0.474
GUCCUGUGCUACACAUCGUAUGUACCGAAUCGGGGAAAAAAAGGGGUGGGGUUUGGGGAAAGUAUUAUGUUACGCCGUUCGGAUCUGCAC,0.494

# Study 2
# Target: Interferon regulatory factor 5, full length, phosphomimetic (IRF5, Homo sapiens, UniProt Q13568-2, residues 1-514, K96S/S451D/S453D/S456D/S462D)
# Technique: protein-binding microarray
# Form: double-stranded DNA, one strand shown
# Matrix: in vitro
# Concentration: 250 nM
# Notes: 60-bp whole probe
# Together with: salmon DNA 0.4 mg/ml
# Reference: random background probes
# Reading: higher = stronger binding
# All sequences stand within: GCCTAGCAC … GTCTTGATTCGCTTGACGCTGCTG
Strand,log fluorescence
TTAGATCGCAGTCTCGATTAGTGCTAG,0.39 z-score
CAGGAATTGAAAATTAGTGTTGTGCTA,0.497 z-score
TTCATTTTTTTTTTCATCATGTGCTAG,1.73 z-score
GACGGTTTCCGGTATCGGGACGTGCTA,2.37 z-score
GACGATTTCAGATTGGAGACGTGCTAG,0.291 z-score
CAAGTGGAGCCCAGGCCAGAGTGCTAG,-0.889 z-score
GAGGCAAGGAGGGAGAACAGGTGCTAG,-0.606 z-score
GTTATCCTATATCTGAACCGGTGCTAG,0.356 z-score
GACGGTCTCCTTCTCCTGAAGTGCTAG,-0.107 z-score
TCAGTTTTCTTTTCCATTTTGTGCTAG,2.46 z-score
TTTCCACTTTCTTTTGCTTGGTGCTAG,4.82 z-score
TTAGATATTAGTCTCGATTAGTGCTAG,1.46 z-score
TCATTTTTAGAAATTTTTACTGTGCTA,1.23 z-score
TTAGGACTGGGGTTTCGATTAGTGCTA,5 z-score
TTAGAGTTCGGGTATCGATTAGTGCTA,3.33 z-score
GACGGTTTCGGACTGGGTACGTGCTAG,4.18 z-score
GAAGATTTCGGGACTGGAGACGTGCTA,1.45 z-score
TTAGGACTGGATCTCGGTTAGTGCTAG,-0.172 z-score
GACGATTTCGGGAATCGAGACGTGCTA,2.42 z-score
GACGATTCCAGTTTCGAGTCGTGCTAG,6.37 z-score

# Study 3
# Target: Sal-like protein 4, full length isoform A (SALL4, Homo sapiens, UniProt Q9UJQ4, residues 1-1053)
# Sequence of UniProt Q9UJQ4 (whole entry, looked up): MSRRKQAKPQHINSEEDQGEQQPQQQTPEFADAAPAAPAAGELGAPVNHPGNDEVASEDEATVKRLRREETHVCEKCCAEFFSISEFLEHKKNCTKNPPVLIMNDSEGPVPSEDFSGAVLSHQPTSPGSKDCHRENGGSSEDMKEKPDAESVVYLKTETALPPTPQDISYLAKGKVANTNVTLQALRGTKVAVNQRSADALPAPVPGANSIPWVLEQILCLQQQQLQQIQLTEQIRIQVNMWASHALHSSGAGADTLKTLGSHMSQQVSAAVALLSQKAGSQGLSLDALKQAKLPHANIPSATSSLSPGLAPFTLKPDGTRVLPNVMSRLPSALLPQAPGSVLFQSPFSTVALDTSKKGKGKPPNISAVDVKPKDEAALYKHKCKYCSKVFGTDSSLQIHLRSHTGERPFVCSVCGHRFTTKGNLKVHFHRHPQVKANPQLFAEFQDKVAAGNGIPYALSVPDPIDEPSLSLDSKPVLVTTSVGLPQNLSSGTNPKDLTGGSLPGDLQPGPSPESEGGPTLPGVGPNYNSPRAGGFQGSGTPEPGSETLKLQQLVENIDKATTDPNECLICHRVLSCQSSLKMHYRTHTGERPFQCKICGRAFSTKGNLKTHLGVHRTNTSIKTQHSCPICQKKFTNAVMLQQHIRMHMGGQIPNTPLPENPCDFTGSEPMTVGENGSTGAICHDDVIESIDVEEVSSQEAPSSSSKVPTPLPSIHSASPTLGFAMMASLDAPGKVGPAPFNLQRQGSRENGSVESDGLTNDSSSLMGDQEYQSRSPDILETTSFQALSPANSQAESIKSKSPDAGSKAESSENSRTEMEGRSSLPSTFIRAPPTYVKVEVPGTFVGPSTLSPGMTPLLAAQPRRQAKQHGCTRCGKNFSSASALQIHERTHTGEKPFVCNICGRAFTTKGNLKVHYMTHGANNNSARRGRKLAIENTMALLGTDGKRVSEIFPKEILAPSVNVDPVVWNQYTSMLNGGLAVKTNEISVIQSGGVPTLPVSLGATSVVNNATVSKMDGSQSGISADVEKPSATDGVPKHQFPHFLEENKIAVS
# Technique: universal PBM
# Form: double-stranded DNA, one strand shown
# Matrix: in vitro
# Concentration: 600 nM
# Notes: 8-mer, flanks averaged, mean of replicates
# Reading: higher = stronger binding
Strand,E-score
CTTGAAAA,0.226
AGTACGGC,-0.186
CTCCTATA,0.162
GGCTACTA,0.118
AGAGTCAC,-0.101
TAGTGCAA,0.215
CTGACCTA,-0.0542
AGTTGATC,0.0147
AGTTTGAG,-0.0312
ACTGTTTG,0.158
CCGCTGAC,-0.261
CTCTGAAA,0.161
AAAATGCC,0.156
AAACGTTG,-0.101
CCACAAAA,0.0569
TGAGACAA,-0.0683
AGTAGGCG,-0.21
ACAGCTGT,-0.18
TAAGTCTA,0.109
GTCCCCGA,-0.259
AGCCCTCA,-0.198
ACGTACTC,-0.0555
AGATGGTA,0.0985
AAAACGGC,0.0328
CCTCTAAA,-0.00348

# Study 4
# Target: RNA binding protein fox-1 homolog 2, RRM domain, GST-SBP tag (RBFOX2, Homo sapiens, UniProt O43251-10, residues 100-194)
# Technique: RNA Bind-n-Seq
# Form: RNA
# Matrix: in vitro
# Concentration: 365 nM
# Notes: natural RNA segment, single round, ends assumed
# Reference: no-protein control
# Reading: higher = stronger binding
# All sequences stand within: GGGAGUUCUACAGUCCGACGAUC … UGGAAUUCUCGGGUGCCAA
# Construct (chain): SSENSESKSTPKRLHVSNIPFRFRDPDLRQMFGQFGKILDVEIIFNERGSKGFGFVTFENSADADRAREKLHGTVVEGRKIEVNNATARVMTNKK
Strand,RBNS enrichment (R)
CUAAUUAAAUCGUGAAAUGGCAGUAUAGUCCAUGAUAUCUAAGGAGUUGGCAAGCUUAACAAAACCCAUUUUUUAUAAAUGUCCAUCCUCCUGCAUUUGUUGAUACCACU,0.552
CCUUGAGCCUCAAAACCUGUUCUACCAUUGAAGGAGAGGAAGAUUGAAGUUGGCUUACAUUUCUACAGUGUUAGGGGCGUAGGAGAAUUGGGGCCAACAUCCCAUCAGAA,0.698
GUUUGCUGUUGCACACUGAUUGCUAAGGGUGCAUCCAUUCUAAGCAUUGAAUACUCCAUCCCCUUCCCGCCCAGUGAAUGGAAUGAGAAAAGCCUUCUUCCUUUGCUUCA,1.39
CCCAAAGCAAUGGUCCCCAAGCACUGAUGAAAACUAAUAUGCAUUUCCCAAAGACCCACACUAUGUAUCAGGAGCCUGCACCAUGCCAUUUGAAUGACCCUCAGCAAUGU,1.26
AACUUAGAAACCAAAGACUAACUCUCUAGGGGAUCCUGCUGCUUUGCUUUCCUUCCUCGCUACUUCCUAAAAAGCAACAAAAAAGUUUUUGUGAAUGCUGCAAGAUUGUU,0.451
GGGUUCCUUCUGUUUCCUAUUUGGGCACUGAGCCAGAGGAUGGAGUUGUCUCCCUGACAAAUAAUGAACCACCCCACCUUUUAGAAUGAAGUAUAAAUGAAGUCAUAAAA,0.465
GAAGCUGAUACAUUGCACAAUUCUCUAGACACCACUCACUACACUAAUGCAGUUUUUCAAAUUCUAGUAUUAUGUGUUGCUUAAGAUCACUACAGAGAUGCUACUGAAGA,0.42
ACUGAUGAUGCCCAUGAUACAAUUAGAAGUAUGUUAAAGAAGCGUGGGCAUUACAGAGAGCAGAAAGAAAUGAAGAAUCCUCUUCUUACUGAUGGUACCAAAGAAUCAAA,2.3
AGUGUACACUACUGUAUAAUUUAUGUUUACCAUAUGAGUCUUGAAACACUACAGAUAUUUUGAAUAUCAGUCAUGAUGGCAAUUUCUGUAUAAAAGAGCCUUAAAUGGAA,0.276
UUUUUAGGCCACAUUGACAGUGGUGGGCGGGGAGAAGAUAGGGAACACUCAUCCCUGGUCGUCUAUCCCAGUGUGUGUUUAACAUUCACAGCCCAGAACCACAGAUGUGU,0.26
ACCAGAAAGUUGUGGAUUAAAGGCCUGUGAAUACUGCUGAGCUUGUUGUUUGUAGAAGACCUCACUGGGGUCUCAGAUAAGCAGGUAAAAUAAACCUCAGGGUUUAUCUU,0.44
UUUUCUCCAUGGAGCAAGGUGCAGUGCUAGAAUAUGGUGGUUGAUUCCCAAACAGAGCAGUUAACUUUACUCUUGGUUCUGAGUCUCCAAAUAAUAAUAGCCGACGUUUA,0.547
